Published values from different studies.
Protocols differ between the studies behind these lines. Values joined by “and” are separate records of one study, mostly repeats; a detail may differ. Numbers after ± are the reported error.
folP: Dihydropteroate synthase (folP, Bacteria, UniProt P0AC13)
T1: RNA aptamer; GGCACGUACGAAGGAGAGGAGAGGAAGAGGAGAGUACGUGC
T2: RNA aptamer; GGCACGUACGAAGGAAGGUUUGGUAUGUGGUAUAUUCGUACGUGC
T3: RNA aptamer; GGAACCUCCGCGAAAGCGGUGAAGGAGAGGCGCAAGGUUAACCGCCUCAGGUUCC

`Cn1nc(CNc2nnn[nH]2)c(=O)c2c(=O)[nH]c(N)nc21` gave a melting temperature of 66.6 °C (folP; CETSA HiBiT; whole cells).
`N=C(N)NCCS(=O)(=O)O`: “normalised MST signal” 0.00156 (Sodium- and chloride-dependent taurine transporter (SLC6A6, Homo sapiens, UniProt P31641, G62A); binding, microscale thermophoresis; 500 µM, room temperature, added: 50 nM labelled protein; higher = more binding).
For `C[C@@H](Nc1nc(N[C@H](C)C(F)(F)F)nc(-c2cccc(Cl)n2)n1)C(F)(F)F`, the maximum inhibition was 61.6 ± 3.7% (Isocitrate dehydrogenase [NADP], mitochondrial (IDH2, Homo sapiens, UniProt P48735, R172K); 16 h preincubation).
Under “binding constant ratio”, `CN(CCCN1CCN(C(=O)CN2CCN(CC(=O)[O-])CCN(CC(=O)[O-])CCN(CC(=O)[O-])CC2)CC1)c1ccc2nccc(C(=O)NCC(=O)N3CC(F)(F)C[C@H]3C#N)c2c1.[Lu+3]` is recorded as about 2.6 fold (Albumin (ALB, Homo sapiens, UniProt P02768); fluorescence quenching; baseline: compound over natLu-FAP-2286).
`COCC[C@H](NC(=O)[C@H](CCC(=O)O)NC(=O)[C@H](CCCNC(=N)N)NC(=O)[C@H](C)NC(=O)[C@H](Cc1c[nH]c2ccccc12)NC(=O)[C@H](CCC(=O)O)NC(=O)[C@H](CCC(=O)O)NC(=O)[C@H](CCC(=O)O)NC(C)=O)C(=O)NCC(=O)N[C@@H](C)C(=O)N[C@@H](CCC(N)=O)C(=O)N[C@@H](CC(C)C)C(=O)N[C@@H](CCCNC(=N)N)C(=O)N[C@@H](CCCNC(=N)N)C(=O)N[C@@H](C)C(=O)N[C@@H](C)C(=O)N[C@@H](CC(=O)O)C(=O)N[C@@H](CC(=O)O)C(=O)N[C@@H](CC(C)C)C(=O)N[C@@H](CC(N)=O)C(=O)N[C@@H](C)C(=O)N[C@@H](CCC(N)=O)C(=O)N[C@@H](Cc1ccc(O)cc1)C(=O)N[C@@H](CCC(=O)O)C(=O)N[C@@H](CCCNC(=N)N)C(=O)N[C@@H](CCCNC(=N)N)C(=O)N[C@@H](CCCNC(=N)N)C(N)=O` gave a koff of 0.0282 s⁻¹ (Induced myeloid leukemia cell differentiation protein Mcl-1 homolog, residues 152-308 (Mus musculus, UniProt P97287); binding, SPR; 0.2% DMSO).
The binding stoichiometry of `CC[C@H](C)[C@H](NC(=O)[C@H](CC(=O)O)NC(=O)[C@H](CCCNC(=N)N)NC(=O)[C@H](CC(C)C)NC(=O)[C@@H](NC(=O)[C@H](CCC(N)=O)NC(=O)[C@H](CC(C)C)NC(=O)[C@H](CO)NC(=O)[C@H](CCCNC(=N)N)NC(=O)[C@H](CCC(=O)O)NC(=O)[C@H](CCCNC(=N)N)NC(=O)[C@H](Cc1c[nH]cn1)NC(=O)[C@H](CCC(=O)O)NC(=O)[C@H](CC(C)C)NC(=O)[C@H](CCC(N)=O)NC(=O)[C@H](CCC(=O)O)NC(=O)[C@H](CCC(N)=O)NC(=O)[C@H](CO)NC(=O)[C@@H](N)CC(C)C)[C@@H](C)O)C(=O)N[C@@H](CCC(N)=O)C(=O)N[C@@H](CCCNC(=N)N)C(=O)N[C@@H](CCSC)C(=O)O` is reported as 0.98 (Catenin beta-1, residues 141-305 (CTNNB1, Homo sapiens, UniProt P35222); ITC; concentration not given, 25 °C).
Under “isoTOP-ABPP competition ratio”, `CCCCCCCCCCCCC/C=C/C=O` is recorded as 1.2 (V-type proton ATPase catalytic subunit A (ATP6V1A, Homo sapiens, UniProt P38606); competitive isoTOP-ABPP; proteome, soluble, MDA-MB-231; 100 µM, added: iodoacetamide probe; baseline: DMSO over compound-treated, higher = stronger cysteine blockade).
The Kd of `COc1ccc(-c2ccc3c(c2)C(=Cc2sc4ccccc4[n+]2C)C=CN3C)cc1` is reported as 0.21 nM (T1, RNA aptamer; fluorescence titration).
For `N[C@H]1CC[C@H](Nc2nccc(-c3cccnc3Oc3ccc(NC(=O)NC4CC4)c4ccccc34)n2)CC1`, “log2 LFQ intensity” read 23.9 and 23.6 and 23.8 and 23.7 (Nucleophosmin (NPM1, Homo sapiens, UniProt P06748); kinobead competition pulldown; HEK293/HCT116 lysate mixture; 10 µM, 1 h, 4 °C; lower = stronger competition).
For `O=C1c2sc(-c3ccc(N4CCC(F)C4)nc3F)nc2CCN1c1cccnc1` (stereo not shown), the inhibition was -7% (GABA transporter; radioligand binding; 1 µM, added: antagonist radioligand).
The Emax of `COc1cc(C2C(NC(=O)c3ccc(NC(=O)OC(C)(C)C)cc3)(C(=O)O)C(c3ccc(OC(=O)c4cccs4)c(OC)c3)C2(NC(=O)c2ccc(NC(=O)OC(C)(C)C)cc2)C(=O)O)ccc1OC(=O)c1cccs1` (stereo not shown) is reported as 83.6 ± 4.25% (Glucagon-like peptide 1 receptor (GLP1R, Homo sapiens, UniProt P43220, K202A); cAMP accumulation, agonist; receptor mutant; baseline: wild type).
With `N#Cc1cnc2sc(C(=O)O)cc2c1N1CCc2[nH]nc(C(=O)N[C@@H](CC(=O)NCCOCCN3CCOCC3)c3cccc(Br)c3)c2C1` the remaining activity was 110% (Interleukin-1 receptor type 1 (IL1R1, Homo sapiens, UniProt P14778); SEAP reporter gene, antagonist; HEK-Blue IL-36R cells; 100 µM, 6 h, added: IL-1β 5 ng/mL; baseline: untreated).
For `C=C(NC(=O)c1csc(-c2cccnc2)n1)C(=O)NC(=C)C(=O)OC`, “adduct formation rate” read 0.0058 ± 0.0002 min⁻¹ (Thioredoxin-dependent peroxide reductase, mitochondrial (PRDX3, Homo sapiens, UniProt P30048, A142E/C108S/S139E); MALDI-TOF; 50 µM).
With `O=C1C[C@H](c2nc(-c3ccc(F)c4cn[nH]c34)no2)CCCN1c1ccc(F)cc1` (racemic) the fold change was 30.5 (Cannabinoid receptor 2 (CNR2, Homo sapiens, UniProt P34972, F87A); GloSensor cAMP; concentration not given, CB2 mutant; baseline: mutant over wild type).
For `CC[C@H](C)[C@@H]1NC(=O)[C@H](Cc2ccccc2)NC(=O)[C@H](CCC(=O)O)NC(=O)[C@H](CCCNC(=N)N)NC(=O)CNC(=O)[C@@H](NC(=O)[C@H](CC(C)C)NC(=O)[C@H](CCCNC(=N)N)NC(=O)[C@@H](NC(=O)CNC(=O)[C@H](Cc2ccc(O)cc2)NC(=O)[C@@H]2CCCN2C(=O)[C@H](C)NC(=O)[C@H](C)NC(=O)[C@@H](N)CCCNC(=N)N)C(C)C)CSSC[C@@H]2NC(=O)[C@@H](NC(=O)[C@H](CO)NC(=O)[C@H](CO)NC(=O)[C@H](CO)NC(=O)[C@H](CC(C)C)NC(=O)CNC(=O)[C@H](C)NC(=O)[C@H](CC(C)C)NC(=O)[C@@H](NC(=O)[C@@H](N)CC(=O)O)C(C)C)CSSC[C@H](NC(=O)CNC(=O)[C@H](Cc3c[nH]c4ccccc34)NC(=O)[C@H](CCCCN)NC2=O)C(=O)N[C@@H](CO)C(=O)N[C@@H](CCCCN)C(=O)N[C@@H](CO)C(=O)N[C@@H](CCC(=O)O)C(=O)N[C@@H]([C@@H](C)CC)C(=O)N[C@@H](CO)C(=O)N[C@@H](CO)C(=O)N[C@@H](CC(C)C)C(=O)N[C@H](C(=O)O)CSSC[C@@H](C(=O)NCC(=O)NCC(=O)N[C@@H](CO)C(=O)N[C@@H](CCCNC(=N)N)C(=O)N[C@@H](Cc2c[nH]c3ccccc23)C(=O)O)NC(=O)[C@H]([C@@H](C)O)NC(=O)[C@H](Cc2ccccc2)NC(=O)[C@H]([C@@H](C)CC)NC(=O)[C@H](C(C)C)NC(=O)[C@H](C)NC(=O)[C@H](CCCNC(=N)N)NC1=O`, the Emax was 39.3 ± 8.17% (Relaxin-3 receptor 2 (RXFP4, Homo sapiens, UniProt Q8TDU9, W279A); HEK-293T; baseline: wild type).
For `CCOC(=O)Cc1n[nH]c2nc(N)[nH]c(=O)c2c1=O`, “target engagement efficiency” read 18.7% (folP; CETSA HiBiT; Escherichia coli, whole cells; concentration not given; baseline: whole cell over lysate ΔTm).
`COc1ccc(-c2ccc3c(c2)C(=Cc2sc4ccccc4[n+]2CC(=O)NCCOCCOCCOCCNC(=O)CCCC[C@@H]2SC[C@@H]4NC(=O)N[C@@H]42)C=CN3C)cc1` has a Kd of 31.7 nM (T2, RNA aptamer; fluorescence titration).
For `C[Si](C)(C)C[C@@H](CN)CC(=O)O`, the inhibition was -4% (Somatostatin receptor type 3 (SSTR3, Homo sapiens, UniProt P32745); ligand displacement, radioligand; 75 µM).
For `N#CN1CC[C@H](C(=O)Nc2nc3c(s2)CN(C(=O)CN=[N+]=[N-])CC3)C1`, the spectral count was 5 (L-lactate dehydrogenase B chain (LDHB, Homo sapiens, UniProt P07195); two-step pull-down LC-MS/MS; HEK293T; click chemistry probe).
With `O=C(NS(=O)(=O)c1cccs1)c1cc2ccccc2n1Cc1ccc(Br)c2ccccc12` the kon was 748000 M⁻¹ s⁻¹ (Solute carrier family 22 member 11 (SLC22A11, Homo sapiens, UniProt Q9NSA0); binding, SPR).
`CC(C)(C(=O)N1CCC(Nc2nc3c(c(=O)[nH]2)CCCC3)CC1)c1ccc(Cl)cc1` gave an Emax of 85.4 ± 4.31% (MRGPRD (Homo sapiens, UniProt Q8TDS7, Q182A); miniGq recruitment, agonist, BRET; HEK293T; Q182A mutant; baseline: wild type).
`O=C(O)CCCCCC[C@H]1C(=O)NC(=O)N1CC[C@@H](O)C1CCCCC1` gave an Emax of 122 ± 7% (Prostaglandin D2 receptor (PTGDR, Homo sapiens, UniProt Q13258); agonist).
`Cn1c(=O)n(C2CCC(=O)NC2=O)c2ccc(C3CCN(CC(=O)Nc4cccc(CS(=O)(=O)N5CC[C@H](Nc6cccc(-c7sc(C(=O)O)c(OCC(=O)O)c7Cl)c6)CC5(C)C)c4)CC3)cc21` (stereo partly shown) — result for “BLI binding response”: 0.197 a.u. (Tyrosine-protein phosphatase non-receptor type 1 (PTPN1, Homo sapiens, UniProt P18031); degrader, bio-layer interferometry; 62.5 nM, biotinylated protein immobilised; higher = more binding).
With `CC(=O)N[C@@H](CO)C(=O)N[C@@H](C)C(=O)N[C@@H](CCCCN)C(=O)N[C@@H](C)C(=O)N[C@@H](C)C(=O)N[C@@H](CC(=O)O)C(=O)N[C@@H](CC(=O)O)C(=O)N1CCC[C@H]1C(=O)N[C@@H](CCC(=O)O)C(=O)N[C@@H](CC(N)=O)C(=O)NCC(=O)N[C@@H](CCC(=O)O)C(=O)N[C@@H](CCCNC(=N)N)C(=O)N[C@@H](CCC(=O)O)C(=O)N[C@@H](CO)C(=O)N[C@@H](Cc1c[nH]cn1)C(=O)N[C@H](C(=O)N1CCC[C@H]1C(=O)N[C@H](C(=O)N[C@@H](CO)C(N)=O)C(C)C)[C@@H](C)O` the ΔH was -15.41 ± 0.124 kcal/mol (Kelch-like ECH-associated protein 1, Kelch domain (KEAP1, Homo sapiens, UniProt Q14145); binding, ITC; pH 7, 298.15 K).
For `O=C(CCl)N[C@@H](Cc1ccccc1)C(=O)N1CCCC[C@H]1C(=O)NCCc1c[nH]c2cc(Cl)cc(Cl)c12`, “first transition share” read 70% (Peptidyl-prolyl cis-trans isomerase NIMA-interacting 1 (PIN1, Homo sapiens, UniProt Q13526); protein denaturation, thermal shift).
`CCCCCC=CC=C1C(=O)C=CC1CC=CCCCC(=O)O` (stereo not shown) — result for “isoTOP-ABPP competition ratio”: 4.2 (Ras-related GTP-binding protein C (RRAGC, Homo sapiens, UniProt Q9HB90); competitive isoTOP-ABPP, item: RRAGC cysteine peptide; Ramos soluble proteome; 100 µM, added: iodoacetamide probe; baseline: DMSO over compound-treated, higher = stronger cysteine blockade).
With `Cn1nc(CCC#N)c(=O)c2c(=O)[nH]c(N)nc21` the melting temperature was 61.4 °C (folP; CETSA HiBiT; whole cells).
Under binding, `CN(C)c1ccc2c(-c3ccccc3C(=O)[N-]S(=O)(=O)N(C)C)c3ccc(=[N+](C)C)cc-3oc2c1` is recorded as “binds” (T3, RNA aptamer; RNase T1 footprinting).

A few entries again:
Under binding, `CN(C)c1ccc2c(-c3ccccc3C(=O)[N-]S(=O)(=O)N(C)C)c3ccc(=[N+](C)C)cc-3oc2c1` is recorded as “binds” (T3, RNA aptamer; RNase T1 footprinting).
For `N#CN1CC[C@H](C(=O)Nc2nc3c(s2)CN(C(=O)CN=[N+]=[N-])CC3)C1`, the spectral count was 5 (L-lactate dehydrogenase B chain (LDHB, Homo sapiens, UniProt P07195); two-step pull-down LC-MS/MS; HEK293T; click chemistry probe).
Under “binding constant ratio”, `CN(CCCN1CCN(C(=O)CN2CCN(CC(=O)[O-])CCN(CC(=O)[O-])CCN(CC(=O)[O-])CC2)CC1)c1ccc2nccc(C(=O)NCC(=O)N3CC(F)(F)C[C@H]3C#N)c2c1.[Lu+3]` is recorded as about 2.6 fold (Albumin (ALB, Homo sapiens, UniProt P02768); fluorescence quenching; baseline: compound over natLu-FAP-2286).
For `C[Si](C)(C)C[C@@H](CN)CC(=O)O`, the inhibition was -4% (Somatostatin receptor type 3 (SSTR3, Homo sapiens, UniProt P32745); ligand displacement, radioligand; 75 µM).
For `O=C(CCl)N[C@@H](Cc1ccccc1)C(=O)N1CCCC[C@H]1C(=O)NCCc1c[nH]c2cc(Cl)cc(Cl)c12`, “first transition share” read 70% (Peptidyl-prolyl cis-trans isomerase NIMA-interacting 1 (PIN1, Homo sapiens, UniProt Q13526); protein denaturation, thermal shift).
